Assay results of several laboratories.
Parts stem from different laboratories: compare values within a part only. Several values in a cell are separate wells, animals, samples, runs or records.

Study 1
Compound: C[C@@H]1CN(c2ccc(-c3cc(C(=O)NCCOCCOCCOCCOCCNC(=O)/C=C/c4[nH]cc(C(=O)N[C@@H](CC(N)=O)c5ccc(F)c(Cl)c5)c4-c4ccc(Cl)cc4F)ccc3F)cc2NC(=O)c2c[nH]c(=O)cc2C(F)(F)F)C[C@H](C)N1C
Read-out: thermal unfolding
Method: differential scanning fluorimetry
Tested at: 5.5 µM
Direction: higher = more unfolded
WDR5: WD repeat-containing protein 5 (WDR5, Homo sapiens, UniProt P61964)
DCAF1: DDB1- and CUL4-associated factor 1 (DCAF1, Homo sapiens, UniProt Q9Y4B6)
Sequence of UniProt Q9Y4B6 (whole entry, looked up): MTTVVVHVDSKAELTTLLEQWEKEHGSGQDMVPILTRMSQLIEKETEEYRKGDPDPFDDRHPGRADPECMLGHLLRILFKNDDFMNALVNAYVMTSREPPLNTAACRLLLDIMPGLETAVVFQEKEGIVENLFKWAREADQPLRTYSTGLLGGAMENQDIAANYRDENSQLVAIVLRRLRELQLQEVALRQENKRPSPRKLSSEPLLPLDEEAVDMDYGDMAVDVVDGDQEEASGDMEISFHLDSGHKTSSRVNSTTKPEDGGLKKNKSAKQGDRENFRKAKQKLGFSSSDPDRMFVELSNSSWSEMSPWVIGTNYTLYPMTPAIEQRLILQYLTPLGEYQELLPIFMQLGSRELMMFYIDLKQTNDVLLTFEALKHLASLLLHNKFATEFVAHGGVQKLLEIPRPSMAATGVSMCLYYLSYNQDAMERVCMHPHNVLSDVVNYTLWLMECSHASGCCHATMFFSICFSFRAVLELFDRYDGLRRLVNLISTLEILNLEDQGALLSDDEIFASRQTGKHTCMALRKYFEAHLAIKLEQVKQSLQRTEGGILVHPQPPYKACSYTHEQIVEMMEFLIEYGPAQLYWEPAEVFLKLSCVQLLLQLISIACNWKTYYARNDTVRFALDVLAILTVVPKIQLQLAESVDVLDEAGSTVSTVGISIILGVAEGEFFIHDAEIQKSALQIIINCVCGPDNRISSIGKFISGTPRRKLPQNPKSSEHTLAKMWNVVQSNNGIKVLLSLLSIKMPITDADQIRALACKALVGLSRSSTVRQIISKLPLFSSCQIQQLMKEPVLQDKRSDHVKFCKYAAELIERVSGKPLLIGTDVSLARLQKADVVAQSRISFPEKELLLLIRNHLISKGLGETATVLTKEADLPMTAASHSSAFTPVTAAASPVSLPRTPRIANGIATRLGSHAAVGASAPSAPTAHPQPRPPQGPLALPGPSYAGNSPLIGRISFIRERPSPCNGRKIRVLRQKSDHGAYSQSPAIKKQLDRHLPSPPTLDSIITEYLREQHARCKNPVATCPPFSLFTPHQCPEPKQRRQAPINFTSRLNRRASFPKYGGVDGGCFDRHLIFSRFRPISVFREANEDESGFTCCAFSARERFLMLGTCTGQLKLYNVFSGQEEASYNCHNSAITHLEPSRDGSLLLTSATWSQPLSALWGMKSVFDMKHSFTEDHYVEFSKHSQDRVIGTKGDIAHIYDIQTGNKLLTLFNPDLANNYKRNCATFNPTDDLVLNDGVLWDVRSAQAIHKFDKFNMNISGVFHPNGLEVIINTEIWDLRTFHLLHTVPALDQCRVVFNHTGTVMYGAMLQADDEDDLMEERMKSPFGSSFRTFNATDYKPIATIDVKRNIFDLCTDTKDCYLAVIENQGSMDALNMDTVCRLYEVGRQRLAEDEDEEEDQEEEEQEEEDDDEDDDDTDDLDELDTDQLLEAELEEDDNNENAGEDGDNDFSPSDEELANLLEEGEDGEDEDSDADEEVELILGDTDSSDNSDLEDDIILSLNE
WDR5; 83.21 °C — “SYPRO Orange fluorescence”: 49000 a.u.
For DCAF1; 31.6 °C: “SYPRO Orange fluorescence” read 9700 a.u.
For DCAF1; 94.01 °C: “SYPRO Orange fluorescence” read 30600 a.u.
The “SYPRO Orange fluorescence” was 15800 a.u. (WDR5; 47.4 °C).

Further values, each from its own experiment
PKMYT1: Membrane-associated tyrosine- and threonine-specific cdc2-inhibitory kinase (PKMYT1, Homo sapiens, UniProt Q99640)
Sequence of UniProt Q99640 (whole entry, looked up): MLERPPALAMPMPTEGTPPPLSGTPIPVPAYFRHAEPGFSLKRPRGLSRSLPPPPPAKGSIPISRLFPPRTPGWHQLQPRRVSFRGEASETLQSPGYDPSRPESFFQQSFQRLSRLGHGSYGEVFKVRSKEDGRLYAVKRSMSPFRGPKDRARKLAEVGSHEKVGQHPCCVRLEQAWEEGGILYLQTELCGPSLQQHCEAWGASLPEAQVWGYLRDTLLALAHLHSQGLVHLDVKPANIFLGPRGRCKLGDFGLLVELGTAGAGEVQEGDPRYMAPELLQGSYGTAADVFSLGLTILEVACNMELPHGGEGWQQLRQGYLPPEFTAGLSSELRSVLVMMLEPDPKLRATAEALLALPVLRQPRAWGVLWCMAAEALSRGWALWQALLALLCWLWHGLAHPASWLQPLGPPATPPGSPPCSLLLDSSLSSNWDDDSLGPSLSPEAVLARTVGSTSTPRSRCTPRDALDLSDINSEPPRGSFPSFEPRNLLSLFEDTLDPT
The inhibition of Cc1ncc(-c2cc3c(C(F)(F)F)c(-c4c(C)ccc(O)c4C)cnc3[nH]2)cn1 is reported as -7.38% and -4.82% (PKMYT1; binding, HTRF; 0.51 nM).
The mRNA level of Cc1ncsc1-c1ccc(C(CO)NC(=O)C2CC(O)CN2C(=O)C(C(C)C)n2cc(-c3ccc(COc4c(-c5c(C)c(F)cc6[nH]ncc56)c(C5CC5)cc5c(N6CC7CC6CN7)nc(OC6CCOCC6)nc45)cc3)nn2)cc1 (stereo not drawn) is reported as 0.0927 and 0.092 (qRT-PCR, refers to: DUSP6; mouse, PK-59 xenograft, tumour; intravenous, 30 mg/kg, 144 h, unit not given; reference: vehicle, same time point).
The EC50 of Cc1ccc(O)c(C)c1-c1cnc2[nH]c(-c3cnc(N4CCC5(CC4)CC(N4CCN(c6ccc(N[C@H]7CCC(=O)N(C)C7=O)cc6F)CC4)CO5)nc3)cc2c1C#N (single isomer, unassigned) is reported as 8 nM (PKMYT1; target engagement, NanoBRET).
The viability of CCN1CCN(Cc2ccc(COc3c(-c4c(C)c(F)cc5[nH]ncc45)c(C4CC4)cc4c(N5C[C@@H]6C[C@H]5CN6)nc(OC5CCOCC5)nc34)cc2)C(=O)C1 is reported as 0.025% and 0.001% (AsPC-1 (KRAS G12D); CellTiter-Glo; 10 µM).
The degradation of Cc1ccc(O)c(C)c1-c1cnc2[nH]c(-c3cnc(N4CCC5(CC4)CC(N4CCN(c6ccc(NC7CCC(=O)NC7=O)cc6F)CC4)CO5)nc3)cc2c1C#N (stereo not drawn) is reported as 53.5% (PKMYT1; MDA-MB-157; 1000 nM).
For Cc1nc(C)c(C=[N+]([O-])C(C)(C)C)nc1C, the pSer473-Akt/total Akt was 165 and 218 and 105 and 99.6 (Western blot; MPTP mouse model; 10 mg/kg).
Cc1ccc(O)c(C)c1-c1cnc2[nH]c(-c3cnc(N4CC5(CC(CN6CCN(c7ccc(NC8CCC(=O)NC8=O)cc7F)CC6)C5)C4)nc3)cc2c1C#N (stereo not drawn): “phospho-CDK1 (Thr14) level” 42.1 a.u. and 50.2 a.u. (HCC1569; CDK1 Thr14 phosphorylation, in-cell western; 12.35 nM; lower = stronger inhibition).
Cc1ncsc1-c1ccc(C(CO)NC(=O)C2CC(O)CN2C(=O)C(NC(=O)c2ccc(COc3c(-c4c(C)c(F)cc5[nH]ncc45)c(C4CC4)cc4c(N5CC6CC5CN6)nc(OC5CCOCC5)nc34)cc2)C(C)C)cc1 (stereo not drawn) gave a phospho-ERK1/2 level of 5.03% and 11.3% and 4.46% (AsPC-1; in-cell ELISA; 1 µM, per-experiment values).

Some of these lines once more (further values, each from its own experiment):
The mRNA level of Cc1ncsc1-c1ccc(C(CO)NC(=O)C2CC(O)CN2C(=O)C(C(C)C)n2cc(-c3ccc(COc4c(-c5c(C)c(F)cc6[nH]ncc56)c(C5CC5)cc5c(N6CC7CC6CN7)nc(OC6CCOCC6)nc45)cc3)nn2)cc1 (stereo not drawn) is reported as 0.0927 and 0.092 (qRT-PCR, refers to: DUSP6; mouse, PK-59 xenograft, tumour; intravenous, 30 mg/kg, 144 h, unit not given; reference: vehicle, same time point).
The EC50 of Cc1ccc(O)c(C)c1-c1cnc2[nH]c(-c3cnc(N4CCC5(CC4)CC(N4CCN(c6ccc(N[C@H]7CCC(=O)N(C)C7=O)cc6F)CC4)CO5)nc3)cc2c1C#N (single isomer, unassigned) is reported as 8 nM (PKMYT1; target engagement, NanoBRET).
